Assay results collected from several papers.
Numbered parts are unrelated; each lists some results of a single study. Substitutions count along the parent as printed.

Block 1 — technique: RNA Bind-n-Seq; molecule type: RNA; sample: in vitro; tested at: 100 nM; reference: input RNA pool; reading: higher = stronger binding
Target: RING finger protein unkempt homolog, zinc fingers 1-6, SBP tag (UNK, Homo sapiens, UniProt Q9C0B0, residues 30-357)
Sequence of UniProt Q9C0B0 (30-357, looked up): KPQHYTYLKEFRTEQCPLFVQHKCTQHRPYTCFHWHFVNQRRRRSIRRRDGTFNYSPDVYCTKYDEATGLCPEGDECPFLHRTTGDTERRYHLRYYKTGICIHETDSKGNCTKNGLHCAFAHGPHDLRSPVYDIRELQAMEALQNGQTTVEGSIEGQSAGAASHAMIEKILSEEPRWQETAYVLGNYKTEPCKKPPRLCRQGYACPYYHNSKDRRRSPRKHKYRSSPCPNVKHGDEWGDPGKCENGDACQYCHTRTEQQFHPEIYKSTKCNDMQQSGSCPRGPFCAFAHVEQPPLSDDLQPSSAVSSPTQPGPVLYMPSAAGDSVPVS
Setting: RNA with constant flanks, vertebrate orthologous sites, ends assumed
All sequences stand within: GGGAGUUCUACAGUCCGACGAUC … CAACAGAGGAUUGAGCAUCA
Sequence | bound/input enrichment [ratio]
AGAACUCUUGGAGUCUUAGAUGUUAUAAAAUUACAUAUAUGUCUGAAUUGUAAGAGUUAUCAGCACAGUUUUUUUAUGCACUUGUUUUGGGUACAAGGCAUUUCUGAAAUUUUAUAAACA | 0.162
CUGUGAGGGUCUACUGACCACUCACUGUUAUGUCUGAUAUCUAUAAACACUUUUUGUUCUUAGUCUUUUUCUUGUAUAAUUGAUGUUCUUUAAAAUUGUUAAUGUAUAACAGGGCUUAUG | 0.539
CUCUAUGGGCCCCGCAGAGUUGAGAUCAUGGAAGAGGAAAGUGAACAGUAACCUUCUCUGUAGUAUUUAUGCUUAGGUGUGAAAUAAACAUUAUUUGUUGAUCACAUGUAUAAUCCGGAG | 0.579
UGUGUGUGGGUGCAGGGUGCUCUGUACCAGUGCUCAUCAUCCCUUCAUACCAACUGUCCCUAGUUAUAGGAAUUUAAUAUUUUUAAAAGUUUUACAUUGCUGUAUAUUCAAAGAUUUGUU | 0.609
UCUGCCUAGCGAUUAGAGUGGGUUCUCCCCCUCGUCCUGUCACAAGGAAGAAAGCUCAAAUAGGUUCUUUACACAUCGGAUUAUGCUGUUCUGUUUCCGUUUUCUAUAUUCACAUAUACA | 0.506
UUUUUACAAUCUUCUACUUAAACUGGUAUUUUCAAACAAUAGGAAAGUUUUUUUUUACAGUUUAGUAUCUGGUUUCUACAUGGAAGACUAAACUCAUGCUUAUAGCUAAAUGUGGUCUUU | 0.38
GUUGUGACCCAUUUAACAUACACAGGAAAGUAUCAAAGAAAAACUUACGCGCAAUCGACUUAGAUGAUGCAGCUUUUCUAAGUGCCAAGUUUGGAAGACAGUUUGUACCUGGUUGGAAGC | 0.882
AACCCCAGUUUAUAUGUGCAUUAUUCACAUUCCUGUUUGUGUUUGGGGAAAAACGACAUUUUAGCCUUUUUUAAGGUUGUUGACUUAAUUUCCUGUUACUUGGCUGCAUGAAGUUGCCCU | 0.276
GAGUGCUUAAGCCGCCAACAGUUAGAAGAUGCUAUUUAUUUGUGUCUGUAAGUUUGUACAUAGUAAUGCCAACCUUGUUGCUGAAUUUUUUAUUUGUGGGGGAUGAGUUUGAAUUUUGUU | 1.51
CUGCUGAUUCACUCAUUGGAAGAGCUGCGCACAUAGCUGUUCUUGAUUCAGAAAUAUUUUUAGAGAAAUUCUUUCUAGUUGCUGCCCUCAAAUAUUUUCAGUAGAAUAAAAAACAUUGUU | 0.76
GAGGGAGGUUUACUUCUUUCAACUUCAGUUUUUCAGGUUGUAGCUGAUCUGUUUUCUUUUUUUCUCUCCUCCUCGCUGUUCUUUUGCUUCCUUUCUGUCUCCCCAACUUCAAAUACACAA | 0.804

Block 2 — target: CCND2, cyclin fold, Cln2 fusion (human); technique: yeast growth competition, sequencing; sample: yeast; setting: weak parent motif; reference: not given; reading: higher = stronger binding
Starting sequence: CDKN1A docking peptide (human); SKACRRLFGPVDS
Substitution | normalised enrichment score
P10Q | 0.111
K2V | 0.559
V11T | 0.701
L7I | -0.0952
L7D | 0.32
F8H | 0.284
C4L | -0.134
S1A | 0.428
K2G | 0.538
K2T | 0.746
R6A | 0.0963
L7F | -0.103
K2H | 0.256
P10F | -0.481
C4M | 0.0876
V11I | 0.674

Block 3 — technique: RNAcompete; molecule type: RNA; sample: in vitro; tested at: 20 nM; setting: 7-mer, probes averaged, single round; reference: mean of 7-mers; reading: higher = stronger binding
Target: PABPC1L2, full length, GST fusion (mouse, UniProt A0ABA7IW68)
Target sequence (chain): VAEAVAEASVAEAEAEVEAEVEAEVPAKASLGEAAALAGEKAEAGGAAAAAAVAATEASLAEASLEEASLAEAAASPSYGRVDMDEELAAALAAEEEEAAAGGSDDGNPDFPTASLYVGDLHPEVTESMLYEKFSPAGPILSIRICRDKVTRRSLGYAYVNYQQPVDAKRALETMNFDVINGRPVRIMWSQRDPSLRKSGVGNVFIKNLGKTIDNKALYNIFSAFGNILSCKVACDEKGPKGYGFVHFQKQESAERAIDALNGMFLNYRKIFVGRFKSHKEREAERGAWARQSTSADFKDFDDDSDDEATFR
Sequence | 7-mer Z-score
ACUAGCU | -0.266
UGAUUGA | -0.126
CCCCUUC | -0.476
GGAAGGU | 0.000733
GCAAUUC | -0.171
GCCGUCU | -0.269
UACCCUC | -0.398
CGACUAU | -0.142
GAAAUAU | 1.19
UGUGGCA | 0.196
CAUCGUC | -0.353
UAUAGGU | -0.233
GUGCUGC | -0.137
UUAGUUG | -0.298
UAUCCAC | -0.345
AGGAAGU | -0.208
CAAGCCG | -0.139
CAUUAUG | -0.0718
ACGGAGG | 0.119
CAGAAUC | -0.00833
CAAAAGC | 0.863
CUUGCUC | -0.465
CACGGAC | 0.0533
UAUCGGC | 0.017
UCGACGA | -0.122

Block 4 — technique: protein binding microarray; molecule type: double-stranded DNA, one strand shown; sample: in vitro; tested at: not given; reference: not given; reading: higher = stronger binding
Target: Histone acetyltransferase KAT6A, winged helix 1, GST fusion (KAT6A, Homo sapiens, UniProt Q92794, residues 1-85)
Setting: 8-mer, flanks averaged, mean of 2 arrays, mostly near background
Residues (chain): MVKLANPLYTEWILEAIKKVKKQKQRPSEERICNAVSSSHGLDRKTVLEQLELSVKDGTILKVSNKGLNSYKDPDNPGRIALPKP
Sequence | E-score
ATAACGTG | -0.0155
CCTCGAAC | -0.145
AGAATTCT | 0.0394
ATACCAAA | 0.0486
GTTATGAA | -0.172
GCAATTGA | 0.0453
CTCTCCGC | 0.123
TCCCATCA | -0.219
AGAGACTA | 0.00518
CAGGTTTA | -0.135
AATGCGCC | 0.323
CGGGCCGA | 0.237
ACCACTCC | 0.0464
ACTCGTAT | -0.202
CAGCCATA | -0.077
TAGGGTCA | -0.189
CGGCCCAG | 0.295
ACGAGGGA | -0.126
GCGCAACA | 0.256
GCAGAGTA | -0.054
ACCGCTGA | 0.122
CCTTAGAA | -0.203
CTAGCCTA | -0.0202
CCAGTAGC | 0.108
TGTAATAA | -0.0375

Block 5 — technique: DHFR PCA, deep sequencing; sample: yeast; added: (+)-ABA 0.39 µM; reference: wild-type fitted maximum; reading: higher = stronger binding
Target: ABI1, truncated, D143A, DHFR fusion (Arabidopsis thaliana)
Setting: methotrexate growth selection, single substitutions
Starting sequence: PYL1, truncated, DHFR fusion (Arabidopsis thaliana); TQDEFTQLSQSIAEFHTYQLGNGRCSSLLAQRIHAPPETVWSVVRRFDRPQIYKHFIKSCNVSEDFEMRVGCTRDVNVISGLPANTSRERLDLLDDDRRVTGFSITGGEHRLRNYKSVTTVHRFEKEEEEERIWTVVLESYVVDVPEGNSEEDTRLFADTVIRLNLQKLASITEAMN; partner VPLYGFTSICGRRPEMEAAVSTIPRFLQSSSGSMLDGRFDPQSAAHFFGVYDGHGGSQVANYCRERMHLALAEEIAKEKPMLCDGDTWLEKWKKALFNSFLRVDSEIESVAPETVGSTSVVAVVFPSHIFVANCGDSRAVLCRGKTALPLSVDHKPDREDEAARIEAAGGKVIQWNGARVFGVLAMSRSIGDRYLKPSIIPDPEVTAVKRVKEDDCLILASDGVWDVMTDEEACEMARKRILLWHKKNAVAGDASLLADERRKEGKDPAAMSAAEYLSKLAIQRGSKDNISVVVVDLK
Substitution | relative binding score [%]
L93R | 13
I133W | 20.3
T119E | 5.49
D97S | 38
L82D | 3.75
S9I | 22.8
Q51L | -2.31
V121C | -0.307
L138G | -14.9
E174Y | -6.38
L169S | -8.13
S140V | 3.92
V137H | -3.69

Block 6 — technique: protein-binding microarray; molecule type: double-stranded DNA, one strand shown; sample: in vitro; tested at: 2200 nM top; setting: 60-bp whole probe; added: salmon DNA 0.4 mg/ml; reference: random background probes; reading: higher = stronger binding; all sequences stand within: GCCTAGCAC … GTCTTGATTCGCTTGACGCTGCTG
Target: Interferon regulatory factor 7, full length, phosphomimetic (IRF7, Homo sapiens, UniProt Q92985, residues 1-503, S471D/S472D/S475D/S476D/S477D/S483D/S484D/S487D)
Target sequence (chain): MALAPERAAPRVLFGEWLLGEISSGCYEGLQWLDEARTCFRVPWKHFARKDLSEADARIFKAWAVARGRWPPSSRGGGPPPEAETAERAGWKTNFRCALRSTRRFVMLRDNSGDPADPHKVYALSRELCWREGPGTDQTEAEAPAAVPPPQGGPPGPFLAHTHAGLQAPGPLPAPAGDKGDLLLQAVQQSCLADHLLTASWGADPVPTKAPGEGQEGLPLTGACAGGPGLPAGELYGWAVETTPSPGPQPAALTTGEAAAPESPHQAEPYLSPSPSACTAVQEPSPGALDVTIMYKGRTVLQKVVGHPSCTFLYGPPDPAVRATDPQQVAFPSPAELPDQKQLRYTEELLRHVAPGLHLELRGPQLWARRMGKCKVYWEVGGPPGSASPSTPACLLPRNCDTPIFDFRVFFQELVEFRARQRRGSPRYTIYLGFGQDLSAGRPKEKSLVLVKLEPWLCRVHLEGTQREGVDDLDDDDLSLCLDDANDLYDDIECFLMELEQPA
Sequence | fitted relative affinity [z-score]
TCACCTATAGGTTCAACACTGTGCTAG | 0.911
TTAGATCTCAGTCTCGATCAGTGCTAG | 0.165
TCATCATTTTCTTTAACACTGTGCTAG | 1.35
CTAGATATCGGGTATCGATTAGTGCTA | 0.335
TCAAGACTCATAATGGCTAGGTGCTAG | -0.322
GACGATATCGGGTATCGAGAAGTGCTA | -0.0211
GACTATTTCAGTCTCGAGACGTGCTAG | 0.996
GACGATATCAGGTTCGAGACGTGCTAG | 0.499
TTAGGACTGGGGTATCGATTAGTGCTA | -0.275
CACGGACTGGGTTTCGGGACGTGCTAG | 0.791
GACGATATCAGTCTCGAGACGTGCTAG | 0.568
GACGATTTCGGGTTTCGAGTCGTGCTA | 6.83
TTAGATACCAGTATCGATTAGTGCTAG | 0.417
GACGGACTGGACTTTCGGGGCGTGCTA | 1.21
GACGATATCACTATCGAGACGTGCTAG | 0.646
TTAGATCTCGGTATCGGTTAGTGCTAG | 0.602
GACGGACTGGGACTGAGGACGTGCTAG | -0.968
GACGGTATCGACACTGGGGCCGTGCTA | -0.591
GACGGTATCGGTATCGGGTCGTGCTAG | 0.583
TTTGGTATCCTTCTCCTTTAGTGCTAG | 2.02
TTAGGTGTCGGGTTTCGGTTAGTGCTA | 3.13
GTAGATTTCAGTATCGATTAGTGCTAG | 0.954
TCACTTCTGCATTACAGACTGTGCTAG | 2.19
TTAGGTTTCGACTTTCAGTTAGTGCTA | 7.06
GATGAACTGAGTATCGAGACGTGCTAG | -0.0305

Block 7 — technique: universal PBM; molecule type: double-stranded DNA, one strand shown; sample: in vitro; tested at: 600 nM; reading: higher = stronger binding
Target: Sal-like protein 4, full length isoform A (SALL4, Homo sapiens, UniProt Q9UJQ4, residues 1-1053)
Sequence of UniProt Q9UJQ4 (whole entry, looked up): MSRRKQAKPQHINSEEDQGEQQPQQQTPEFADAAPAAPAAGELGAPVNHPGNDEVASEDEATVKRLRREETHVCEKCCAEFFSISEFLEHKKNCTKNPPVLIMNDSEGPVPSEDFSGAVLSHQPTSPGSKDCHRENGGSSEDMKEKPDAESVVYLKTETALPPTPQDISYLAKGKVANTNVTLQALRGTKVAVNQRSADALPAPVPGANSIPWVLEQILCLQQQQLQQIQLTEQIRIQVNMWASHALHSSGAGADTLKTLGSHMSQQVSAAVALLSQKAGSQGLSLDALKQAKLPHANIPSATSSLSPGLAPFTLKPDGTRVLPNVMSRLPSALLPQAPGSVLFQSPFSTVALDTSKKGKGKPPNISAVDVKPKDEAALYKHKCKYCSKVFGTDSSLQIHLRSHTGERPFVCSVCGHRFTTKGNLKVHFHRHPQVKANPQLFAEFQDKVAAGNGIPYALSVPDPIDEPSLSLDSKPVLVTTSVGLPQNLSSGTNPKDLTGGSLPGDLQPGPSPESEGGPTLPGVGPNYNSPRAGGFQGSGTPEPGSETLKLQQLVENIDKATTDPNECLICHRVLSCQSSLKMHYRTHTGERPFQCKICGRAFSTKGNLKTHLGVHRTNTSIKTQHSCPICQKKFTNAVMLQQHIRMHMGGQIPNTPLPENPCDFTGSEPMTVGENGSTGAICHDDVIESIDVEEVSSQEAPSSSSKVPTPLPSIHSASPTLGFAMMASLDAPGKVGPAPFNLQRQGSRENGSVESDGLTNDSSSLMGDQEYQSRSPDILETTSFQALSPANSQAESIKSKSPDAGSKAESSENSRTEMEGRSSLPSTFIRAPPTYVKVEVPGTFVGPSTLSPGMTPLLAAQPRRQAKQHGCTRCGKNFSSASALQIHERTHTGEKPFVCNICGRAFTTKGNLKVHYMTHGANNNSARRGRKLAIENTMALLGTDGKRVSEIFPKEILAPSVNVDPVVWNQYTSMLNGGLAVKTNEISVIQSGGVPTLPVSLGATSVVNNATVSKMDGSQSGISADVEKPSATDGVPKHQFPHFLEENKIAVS
Setting: 8-mer, flanks averaged, mean of replicates
Sequence | E-score
CTTTGATC | -0.049
GGCCTGCA | -0.365
ATCGACAC | -0.00485
AATTTTTA | 0.435
ACCTTGTC | -0.153
AGGAAAAA | 0.277
ATCATTGC | 0.106
GCACTAGA | -0.0618
TACTAACA | 0.243
CCCGCAGG | -0.43
CCATGCGA | -0.0537
GAAAAGGC | 0.016
AACGCCCG | -0.215
TCTGGTCA | -0.13
GAGAGGAC | -0.117
CCCGGTCA | -0.243
CATTTAAA | 0.259
GCGTGGCC | -0.402
AACTCAGG | -0.0759
AACGTAGG | -0.136
ATTTAGGG | 0.0166
AAGTACAC | 0.154

Repeated from above (block 3):
Sequence | 7-mer Z-score
ACUAGCU | -0.266
UGAUUGA | -0.126
CCCCUUC | -0.476
GGAAGGU | 0.000733
GCAAUUC | -0.171
GCCGUCU | -0.269
UACCCUC | -0.398
CGACUAU | -0.142
GAAAUAU | 1.19
UGUGGCA | 0.196
CAUCGUC | -0.353
UAUAGGU | -0.233
GUGCUGC | -0.137
UUAGUUG | -0.298
UAUCCAC | -0.345
AGGAAGU | -0.208
CAAGCCG | -0.139
CAUUAUG | -0.0718
ACGGAGG | 0.119
CAGAAUC | -0.00833
